Measured values collected from several papers.
Each numbered part is a random draw from the data of one study; scales do not carry over between parts. Positions count from the first letter of the parent shown.

Study 1
Target: CCNF, cyclin fold, Cln2 fusion (human)
Method: yeast growth competition, sequencing
Sample: yeast
Notes: strong parent motif
Baseline: not given
Reading: higher = stronger binding
Starting sequence: E2F1 docking peptide (human); PPVKRRLDLETDH; partner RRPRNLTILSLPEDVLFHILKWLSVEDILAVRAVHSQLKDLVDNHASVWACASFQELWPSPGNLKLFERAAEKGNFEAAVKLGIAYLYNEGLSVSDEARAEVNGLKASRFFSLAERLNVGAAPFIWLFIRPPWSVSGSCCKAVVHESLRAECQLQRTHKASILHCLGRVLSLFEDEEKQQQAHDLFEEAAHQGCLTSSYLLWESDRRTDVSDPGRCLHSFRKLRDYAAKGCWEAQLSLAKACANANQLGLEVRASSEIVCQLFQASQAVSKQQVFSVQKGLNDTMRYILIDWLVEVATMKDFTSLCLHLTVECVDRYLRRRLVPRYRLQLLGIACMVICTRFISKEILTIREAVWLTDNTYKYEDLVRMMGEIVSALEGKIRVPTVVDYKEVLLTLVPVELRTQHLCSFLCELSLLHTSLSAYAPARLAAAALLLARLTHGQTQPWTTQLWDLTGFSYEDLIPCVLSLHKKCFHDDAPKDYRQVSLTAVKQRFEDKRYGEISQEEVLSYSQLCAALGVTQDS
Change | normalised enrichment score
P2H | 6.52
P1Y | 8.07
D8I | 7.91
R5N | 0.558
R6H | 3.43
D8R | 7.38
L7F | -0.211
V3M | 2.11
K4P | 2.92
L7S | -0.594
E10D | 7.1
K4Y | 3.23
P1G | 4.81
P1R | 6.54
P2T | 6.05
T11D | 6.05
K4S | 4.9
D12F | 7.9
D8S | 5.06
V3H | 1.58
T11L | 7.15
D12G | 6.73
R5V | -0.179
T11M | 6.98
T11V | 6.46

Study 2
Target: JUNB, bZIP domain (human)
Method: DHFR protein complementation
Sample: yeast
Notes: single substitutions, most at no-binding floor
Baseline: wild-type JUN-FOS pair
Reading: higher = stronger binding
Starting sequence: JUN, bZIP domain (human); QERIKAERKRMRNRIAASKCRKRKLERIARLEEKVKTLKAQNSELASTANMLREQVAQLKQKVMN; partner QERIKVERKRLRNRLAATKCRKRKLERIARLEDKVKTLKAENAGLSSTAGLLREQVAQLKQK
Change | binding fitness
K34V | -0.961 natural log
E54R | -1.32 natural log
A40S | -1.3 natural log
T48R | -1.23 natural log
V56K | -1.43 natural log
E54A | -1.22 natural log
E33D | -1.27 natural log
S47W | -1.3 natural log
A29G | -1.24 natural log
M51N | -1.2 natural log
Q55L | -1.42 natural log
I28C | -1.4 natural log
E33R | -1.27 natural log
L38A | -1.58 natural log
E32M | -1.16 natural log
L45S | -1.61 natural log
L45T | -1.45 natural log

Study 3
Target: RNA binding protein fox-1 homolog 2, RRM domain, GST-SBP tag (RBFOX2, Homo sapiens, UniProt O43251-10, residues 100-194)
Method: RNA Bind-n-Seq
Molecule type: RNA
Sample: in vitro
Concentration: 365 nM
Notes: natural RNA segment, single round, ends assumed
Baseline: no-protein control
Reading: higher = stronger binding
Shared flanks, not repeated: GGGAGUUCUACAGUCCGACGAUC … UGGAAUUCUCGGGUGCCAA
Target sequence (chain): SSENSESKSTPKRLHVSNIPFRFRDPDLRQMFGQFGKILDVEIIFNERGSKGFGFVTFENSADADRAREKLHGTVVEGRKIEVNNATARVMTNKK
Sequence | RBNS enrichment (R)
CCCUCCUGUGAUGGGCAGAGGCUCCUGGUACAUCGAGAAGAUUCCUGUGGAUCCCGUCAGGAGGGACUUAGUGGCUCUGCCGCCAGUGAGACUUCCCGCCGGCAGCUGUG | 0.243
GCCUCAGAGCUCAGUCUUGCCAAGGUGGAGAAAUUCUGGUCGAAGAGGUUGACCGGUAGACUGAAGAGGCCUUGAGAGCCUGGCCAGGUGGCUGUCCACGUGAGGUCAUA | 0.31
UUGCAGGAACGCACAAUUCAUUUUAUCAAGUUGAAUGAAUAGGACCAUUCUCUCCUCAUCAGAUUUCUGUUCUUUAUUUGACUUCAUUGACAUAUACCCUGGUGACUAUA | 0.601
CGUCCUCGGCCCCCCACCCUGAAGUGCCAGCACCACCAGCACCAGAUCCUCCGCCGCCACACCGCACUGAGGACACGCCGGCCGGGCCGCCUCGUCUCAAGUUGUAUAAA | 0.685
AUAUAUCAGAAUUACUUUAUAGUUUGAAAGCACUUUGCACACAUUUCCUGUAUAUAAAGGAUGUAAUUACAGGAUAUAGUGGUAAUGCAUUAAAACAUGAACCUCAUUUU | 9.7
UUAUUGCAACAUACACCUGAGAUUUAACAAGGCCCCAAAUGACAGGAAUGUCAUAACCAUUCACACUCUAUGUCUUUCAACUCUCAUCAACAUGUUCAUCAACAUGCGUG | 0.516
UCAGGCCCCGGGCUCCCUGGCCACAAGCUUUUUCUAUCCUGUUUUCAUGACAGAGAAGGGGAAGCCCUGUUCUGACAACAGACAUUUCAGACAACCUUGCUGGCUUUCCA | 0.478
UUCACUGGUUUAUCUACAGAAAUUUCUCUGGGCCUUUUUUUCUGUGUUUGAUUCAACACUGCACUAAGGGGGAAAUGUUCCAUUGAAUAAAAGAGCAGUGUGGUUUUCCG | 0.461
AGAGGUAGGGACUAAGCACCAGGUGCCAGCAGGCCCUCCUGCUGUGGCCACUCCAGAGUGCUCCGUGUCUCCAUGUGUCCGUGGCCUGCCCCCCCCCCAACCCCCCAAAU | 0.264
ACUCUCAGGUCCCCCACUUAGUCAGGCCUGAGCUAAUUUAUUUGAGCGCAGAGUGUAAAAUUUUAAUUCAAAAUGGUGGCUAUACUCACUACACAUAAAUCUCAUAAUCU | 0.387
UUUGUAGCCUUCCGGCUACAUCCCCUUCCCAGUUGUGGACCAAUGCAUCUCUAGAGACAGAUACUAUCCAGCCAUCUGUCUGCCUUGUCUUUUGCAGUACUUCUCCAUGC | 0.307
GCUUAGAACACUAGCUUCCUGUUACGCUUCAUCUAAAAUGCAAAUUCUUACACCCAGCUUACGAGAUCUGGCUCAUACCUUCCCUUUGGAUCUCAUUAAAUGGUGAUUUC | 1.84

Study 4
Target: Histone acetyltransferase KAT6A, winged helix 2, GST fusion (KAT6A, Homo sapiens, UniProt Q92794, residues 85-181)
Method: protein binding microarray
Molecule type: double-stranded DNA, one strand shown
Sample: in vitro
Concentration: not given
Notes: 8-mer, flanks averaged, mean of 2 arrays, mostly near background
Baseline: not given
Reading: higher = stronger binding
Target sequence (chain): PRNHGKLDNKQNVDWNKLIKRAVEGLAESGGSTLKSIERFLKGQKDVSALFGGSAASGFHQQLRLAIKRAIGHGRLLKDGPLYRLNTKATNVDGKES
Sequence | E-score
TGCCAAAA | 0.167
AAGCATAG | 0.0376
CTGTTGCC | 0.0274
AAAGCCAA | 0.103
TGATAGCA | 0.133
ACTCGGCG | 0.181
CACGGGAA | -0.0322
GATCCTGA | -0.0173
ACTATCAT | -0.0157
ATGGCTTA | -0.0645
GTGTTCCA | -0.0814
GTCCTTAA | 0.0515
CAGGGGGA | -0.0307
CGTGTCTC | -0.0697
ATTAACCG | 0.174
AGGACCTG | -0.0159
ATCTGGGA | -0.098
AGCGTGTA | -0.107
CAGACGAA | 0.117
CTGGATCA | -0.00585
CGGAGTTA | 0.0186
CATTCCAC | -0.107
AGCCGGGG | 0.219
GATTAGAA | -0.00201
ATTAGGAG | -0.0191

Study 5
Target: Ras GTPase-activating protein-binding protein 1, full length (G3BP1, Homo sapiens, UniProt Q13283)
Chain of UniProt Q13283 (whole entry, looked up): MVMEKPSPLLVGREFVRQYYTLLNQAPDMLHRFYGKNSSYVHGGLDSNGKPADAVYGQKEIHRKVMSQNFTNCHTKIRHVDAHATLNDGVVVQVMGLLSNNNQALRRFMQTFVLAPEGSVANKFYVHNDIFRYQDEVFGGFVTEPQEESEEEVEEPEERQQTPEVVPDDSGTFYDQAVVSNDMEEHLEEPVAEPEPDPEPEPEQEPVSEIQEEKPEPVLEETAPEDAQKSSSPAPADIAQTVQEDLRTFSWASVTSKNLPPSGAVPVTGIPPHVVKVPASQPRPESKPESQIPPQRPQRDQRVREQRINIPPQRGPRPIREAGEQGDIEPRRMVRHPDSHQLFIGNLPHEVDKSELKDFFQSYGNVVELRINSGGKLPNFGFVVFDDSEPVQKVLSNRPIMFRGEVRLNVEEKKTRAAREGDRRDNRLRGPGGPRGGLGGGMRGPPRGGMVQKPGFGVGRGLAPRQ
Method: RNA Bind-n-Seq
Molecule type: RNA
Sample: in vitro
Concentration: 200 nM
Notes: whole 134-nt RNA, ends assumed
Together with: 150 mM LiCl
Baseline: input library
Reading: higher = stronger binding
Library: 7-deaza-guanosine replaces G
Shared flanks, not repeated: GGGAGUUCUACAGUCCGACGAUC … UGGAAUUCUCGGGUGUCAAGG
Sequence | log2 enrichment
CAAGUCCUGUGCUACACAUCGUAUGUACCGAAUCGGGUUUGGUUUGGGGUUUGGGAAAGUAUUAUGUUACGCCGUUCGGAUCUGCACUUC | -1.34
AGUCCUGUGCUACACAUCGUAUGUACCGAAUCAAAUUUAAAUUUAAACCCCCCCAAAAAAGUAUUAUGUUACGCCGUUCGGAUCUGCACU | 1.46
GCAGGAACUAAAAACAAAUGGAAAUGCUUCGGAUAGUGGCAGGGGUGGGGGUUGCUAAGGAAAGGGUGGGAUGGGAGUGGGUAAAGAGUU | 0.199
AAGUCCUGUGCUACACAUCGUAUGUACCGAAUCGGAAAAAGGUUUGGUUUUUUUGGAAAGUAUUAUGUUACGCCGUUCGGAUCUGCACUU | -2.07
CACAGACAACACGCACCCACACAGACACAGAGGGGAGGGGUUGGGAUGGGGACAGGGUGCACAGCAGGGCGGGGUAGGACCCCAGCCCCU | -0.237
UAACUUUAGAGGAGGAUCUGAUGGAUAUGGCAGUGGACGUAGAUUUGGGGAUGGCUAUAAUGGGUAUGGAGGAGGACCUGGAGGUGGCAA | 0.0501
GUCCUGUGCUACACAUCGUAUGUACCGAAUCGGGCCCCCGGGGCCCCCGGCCCCCGGGAAAGUAUUAUGUUACGCCGUUCGGAUCUGCAC | -1.5
ACCAUGCAGGUGGGCAUCUUUGGGAAGUGGGGCAAGGGGGGGAUAGGGAGGGGGGUACCACUUUGGGAACAGGUGGUCCCAGGUCGUUUC | 0.22
UAACUUUAGAGGAGGAUCUGAUGGAUAUGGCAGUGGACGUGGAUUUGGGGAUGGCUAUAAUUGGUAUGGAGGAGGACCUGGAGGUGGCAA | 0.26
AGUCCUGUGCUACACAUCGUAUGUACCGAAUCGGGCCCCCGGCCCCCGGGCCCCCGGAAAGUAUUAUGUUACGCCGUUCGGAUCUGCACU | -1.06
UGGCCCUGGUGGCAUGCGGGGAGGAAGAGGUGGCCUCAUGGAUCGUGGUGGUCCCGGUGGAAUGUUCUGAGGUGGCCGUGGUGGAGACAG | -0.0488

Study 6
Target: ABI1, truncated, D143A, DHFR fusion (Arabidopsis thaliana)
Method: DHFR PCA, deep sequencing
Sample: yeast
Notes: methotrexate growth selection, single substitutions
Together with: (+)-ABA 0.11 µM
Baseline: wild-type fitted maximum
Reading: higher = stronger binding
Starting sequence: PYL1, truncated, DHFR fusion (Arabidopsis thaliana); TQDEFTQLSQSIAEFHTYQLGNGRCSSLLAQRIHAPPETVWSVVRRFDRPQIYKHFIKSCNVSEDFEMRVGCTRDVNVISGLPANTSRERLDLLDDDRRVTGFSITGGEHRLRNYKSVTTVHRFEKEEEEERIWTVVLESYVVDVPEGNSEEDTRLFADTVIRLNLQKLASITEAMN
Change | relative binding score [%]
Y141L | -0.367
H110W | 82
T173P | 1.16
V43H | 1.22
W41V | -7.34
D144W | -8.94
R90D | 0.237
D95Y | -7.26
T160Q | -4.68
T119G | -4.75
S150Q | 12.8
N149C | 65.9
R155C | 6.59
Y18F | 2.31
A158M | 15.5
E125A | 43.3
V142P | -5.34
R69Y | 0.762
R46S | 4.87
F124W | 41.5
P50N | 6.45
V78C | 36.5
T160N | 1.39
E14Y | 0.123
L28D | -1.58

For quick reference, copied from above (study 1):
Change | normalised enrichment score
K4Y | 3.23
P1G | 4.81
P1R | 6.54
P2T | 6.05
T11D | 6.05
K4S | 4.9
D12F | 7.9
D8S | 5.06
V3H | 1.58
T11L | 7.15
D12G | 6.73
R5V | -0.179
T11M | 6.98
T11V | 6.46
